# Experimental data collected from several papers.
# Every numbered part comes from another study and shows a few of its results, in no order.

# Block 1 — technique: RNA Bind-n-Seq; form: RNA; medium: in vitro; concentration: not given; reference: input RNA pool; direction: higher = stronger binding
# Target: RING finger protein unkempt homolog, zinc fingers 1-6, GST-SBP tag (UNK, Homo sapiens, UniProt Q9C0B0, residues 30-357)
# Notes: RNA with constant flanks, human and mouse sites, ends assumed
# Residues (chain): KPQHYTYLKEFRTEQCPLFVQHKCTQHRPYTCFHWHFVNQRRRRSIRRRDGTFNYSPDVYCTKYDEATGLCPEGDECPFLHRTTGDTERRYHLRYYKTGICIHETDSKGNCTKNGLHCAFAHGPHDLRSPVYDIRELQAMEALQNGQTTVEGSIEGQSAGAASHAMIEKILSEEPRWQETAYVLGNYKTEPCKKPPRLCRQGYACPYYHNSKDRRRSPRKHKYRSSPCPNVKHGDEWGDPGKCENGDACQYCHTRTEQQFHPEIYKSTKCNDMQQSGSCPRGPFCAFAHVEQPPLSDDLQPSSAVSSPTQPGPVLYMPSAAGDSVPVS
Strand,bound/input enrichment [ratio]
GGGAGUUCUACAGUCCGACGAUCUUUGAAGUAAAGACCAUACAUGGGAGCAAGUCAGUGGACUCUGGGAUCUAUCUGGACAGUAGUUACAAAAUGGAUUAUCCUGAAAUGGGCAUAUGCAUAAUAAUUAAUAAUAAGAACUUCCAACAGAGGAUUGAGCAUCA,0.661
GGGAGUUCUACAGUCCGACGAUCCUUCAGUUACAUCCCAGGGAAGAUGCUUGCAUCCCCAAUACAAACUAUGGUGUUCUCUUAAUAGAGUUUUUUGAAUUAUAUGGACGGCACUUCAAUUACUUAAAGACUGGCAUCCGGAUACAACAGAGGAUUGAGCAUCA,1.46
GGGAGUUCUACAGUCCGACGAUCUUUCCUCACAAAUGUGAGGUCUGUGAUAAAGGUUUUCAUCGUCCUUCUGAGCUCAAAAAGCAUAGUGAUAUCCAUAAGGGUAGGAAGAUUCAUCAGUGCAGGCACUGUGACUUUAAAACACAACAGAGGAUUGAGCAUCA,0.235
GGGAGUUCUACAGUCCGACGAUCGUAAUCAGCAGAGACAUUGAUACUGCUGCCAAAUUCAUUGGUGCAGGUGCUGCAACAGUAGGAGUUGCUGGUUCUGGUGCUGGUAUUGGAACAGUCUUUGGCAGUCUUAUCAUUGGUUAUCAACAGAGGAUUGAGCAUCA,0.215
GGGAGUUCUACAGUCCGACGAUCUUUUCUAGGAUGUCUUCUGAGAUUGGAAGGGAAAAGAGUCAGGACUGGGGCUCUGCUGGACUAGGAGGAGUAUUUAAGGUGGAGUGGAUACGAAAAGAAAGCCUUCCCUUUCAAUUUGCACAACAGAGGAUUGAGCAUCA,1.58
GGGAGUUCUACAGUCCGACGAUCACCUGCUUCCUUGCCAAGAAGAUAGCAUCUUCUAAGGUUUUCCAUUAUUAUGGUCCUGCUUUGGAAUUUGUGCAGAUGAUAAAACUAUCAGAUCUUCCCUCCUGUUACAUGUCGGAUAUCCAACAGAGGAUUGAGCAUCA,0.294
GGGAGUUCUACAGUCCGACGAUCGAUAUCCAAGCUUGCGUGGACCAUGUGAACCUGGUGGUGCAAGAGGAACAUGAGAGGAUUUUAGCCAUUGGUUUAAUUAAUGAAGCCCUGGAUGAAGGUGAUGCCCAAAAGACUCUGCAGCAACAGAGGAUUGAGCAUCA,0.48
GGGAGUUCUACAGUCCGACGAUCCAGAACUGUGGCCCGAGUUUCCAAUCUCUGAUUGUGAAGAAGGAGUUCAUUAAAGAUACUCUAGUUAAGCUGCUGAAUCCCAGAUACACCUUACCGCUGGAGACCCAGAACAGAAUCUUGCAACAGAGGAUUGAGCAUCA,0.115
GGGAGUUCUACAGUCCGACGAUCUACACAAGGAAAGUUGACUACUUCCCAUUCCUGGAUUUAGGAGAGGAACUCAGAAGGCCCUUAGGAUGAUCUGUUUGUAUGGGAAGAAGUUAGAGACAAUGGAUUUUAUAAUUCCAGAUUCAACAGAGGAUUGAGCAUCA,1.95
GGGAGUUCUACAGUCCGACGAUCCGGCUGCUCAACCAGCAGCGUGAAUAUGAGGCGCAGCAGCAGUAUCGCCAGCACAUCCAGGUUUUCAUUGACCGGUUUCGCUACAAUGCCAACAGGGCCUCUCAAGUGCAGAGUAAACUCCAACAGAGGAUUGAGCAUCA,0.0735
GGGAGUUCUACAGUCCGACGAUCGAAAAGUUAGAAAAAAUGAUGGAGAAAAAAGGCACUAAAAUCCAGACUCCUGCAGCACCCAAGCAAGUUUUCCCAUUUCGAGACAUCUUUUAUUAUGAAGACGAUAGUGAAGGAGAGGACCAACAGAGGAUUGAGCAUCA,0.839

# Block 2 — technique: RNA Bind-n-Seq; form: RNA; medium: in vitro; concentration: 1 µM; notes: whole 134-nt RNA, ends assumed; together with: 150 mM KCl; reference: input library; direction: higher = stronger binding
# Target: Ras GTPase-activating protein-binding protein 1, RRM domain (G3BP1, Homo sapiens, UniProt Q13283)
# Chain of UniProt Q13283 (whole entry, looked up): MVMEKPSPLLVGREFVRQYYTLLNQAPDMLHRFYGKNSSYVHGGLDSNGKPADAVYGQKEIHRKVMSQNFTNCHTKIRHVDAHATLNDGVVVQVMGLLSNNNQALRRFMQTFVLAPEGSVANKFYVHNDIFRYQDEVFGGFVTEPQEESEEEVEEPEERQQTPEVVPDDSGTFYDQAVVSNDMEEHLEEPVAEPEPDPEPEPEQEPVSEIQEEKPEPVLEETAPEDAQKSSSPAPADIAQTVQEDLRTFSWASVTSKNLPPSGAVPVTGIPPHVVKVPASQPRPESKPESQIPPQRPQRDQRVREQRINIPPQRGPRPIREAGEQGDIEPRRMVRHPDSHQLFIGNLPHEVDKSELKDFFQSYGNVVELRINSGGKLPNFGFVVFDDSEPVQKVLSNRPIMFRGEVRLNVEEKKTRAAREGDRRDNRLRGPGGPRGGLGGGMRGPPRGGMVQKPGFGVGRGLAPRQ
Strand,log2 enrichment
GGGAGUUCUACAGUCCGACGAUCUCCUGUGCUACACAUCGUAUGUACCGAAUCGGGAAAAAGGGAAAAAGGGUUUUUUUGGGAAAGUAUUAUGUUACGCCGUUCGGAUCUGCAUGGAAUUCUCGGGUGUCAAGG,0.017
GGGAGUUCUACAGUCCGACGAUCAAGUCCUGUGCUACACAUCGUAUGUACCGAAUCGGGUUUGGGUUUGGGGUUUGGGGAAAGUAUUAUGUUACGCCGUUCGGAUCUGCACUUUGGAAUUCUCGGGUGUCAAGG,0.701
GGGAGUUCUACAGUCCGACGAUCGUCCUGUGCUACACAUCGUAUGUACCGAAUCGGGGAAAAGGGGAAAAGGGGAAAAGGGGAAAGUAUUAUGUUACGCCGUUCGGAUCUGCAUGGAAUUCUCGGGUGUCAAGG,1.38
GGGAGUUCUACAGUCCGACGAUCAAGUCCUGUGCUACACAUCGUAUGUACCGAAUCGGGGAAAGGGGAAAGGGGAAAGGGAAAGUAUUAUGUUACGCCGUUCGGAUCUGCACUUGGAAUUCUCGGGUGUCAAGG,0.378
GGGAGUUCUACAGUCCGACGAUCCACAGACAACACGCACCCACACAGACACAGAGGGAAGGGGUUGGGAUGGGGACAGGGUGCACAGCAGGGCGGGGUAGGACGCCAGCCCCUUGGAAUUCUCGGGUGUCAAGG,-0.316
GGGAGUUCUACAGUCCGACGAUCUCCUGUGCUACACAUCGUAUGUACCGAAUCGGGGUUUUUUUGGGGUUUUUGGGGUGGGGAAAGUAUUAUGUUACGCCGUUCGGAUCUGCAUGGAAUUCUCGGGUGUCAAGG,0.413
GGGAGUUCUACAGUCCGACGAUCGCAGGAAGUAAAAACAAAUGGAAAUGCUUCGGAUAGUGGCAGGGGUGGGGUUUGCUAAGGAAAGGGUGGGAUGGGAGUGGGUAAAGAGUUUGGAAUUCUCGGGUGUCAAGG,1.55
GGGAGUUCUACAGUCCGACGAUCCACAGACAACAAGCACCCACACAGACACAGAGGGAAGGGGUUGGGAUGGGGACAGGGUGCACAGCAGGGCGGGGUAGGACCCCAGCCCCUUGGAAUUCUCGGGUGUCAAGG,0.141
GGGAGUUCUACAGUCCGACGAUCUAACAUUAGAGGAGGAUCUGAUGGAUAUGGCAGUGGACGUGGAUUUGGGGAUGGCUAUAAUGGGUAUGGAGGAGGACCUGGAGGUGGCAAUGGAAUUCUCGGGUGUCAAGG,-0.377
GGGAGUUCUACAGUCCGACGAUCGUUAAUUCCACCAUCCCCAUCACAGCAGAAGUUUUCAAGAAGCAUGGAGUGUACAACCCCAACAAAAUCUUCGGCGUGACGACCCUGGACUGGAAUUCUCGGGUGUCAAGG,0.039

# Block 3 — technique: protein binding microarray; form: double-stranded DNA, one strand shown; medium: in vitro; concentration: not given; reference: not given; direction: higher = stronger binding
# Target: Histone acetyltransferase KAT6A, winged helix 1, GST fusion (KAT6A, Homo sapiens, UniProt Q92794, residues 1-85)
# Notes: 8-mer, flanks averaged, mean of 2 arrays, mostly near background
# Target sequence (chain): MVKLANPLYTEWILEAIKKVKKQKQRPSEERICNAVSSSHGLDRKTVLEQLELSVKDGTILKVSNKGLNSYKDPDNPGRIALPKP
Strand,E-score
CAAGGGTG,-0.108
CCGTTCTA,0.177
CTCCTTAC,-0.0785
TTATACAA,-0.113
CAGATACA,-0.00792
CTGAAATC,-0.152
AGAGGACC,-0.0988
CTGCAAGC,-0.0118
ATAAGGCA,-0.22
ACATCGCT,-0.0955
ACCCATCT,-0.0595
AGGACTTC,-0.158
GACGTAGC,0.104
CATTTCGA,-0.129
ACCATTCG,-0.047
AGCCACAA,-0.0799
ATTAGGAC,-0.106
CACGCCTG,-0.108
CCTGAGAA,-0.144
CTGTCGTC,-0.161
AACGCGGC,0.378
CCACCCAC,-0.142
GTCCAGTA,-0.149
CTTCGCAA,-0.141
ATATCGTG,0.0199

# Block 4 — technique: RNA Bind-n-Seq; form: RNA; medium: in vitro; concentration: 365 nM; reference: no-protein control; direction: higher = stronger binding
# Target: RNA binding protein fox-1 homolog 2, RRM domain, GST-SBP tag (RBFOX2, Homo sapiens, UniProt O43251-10, residues 100-194)
# Notes: natural RNA segment, single round, ends assumed
# Target sequence (chain): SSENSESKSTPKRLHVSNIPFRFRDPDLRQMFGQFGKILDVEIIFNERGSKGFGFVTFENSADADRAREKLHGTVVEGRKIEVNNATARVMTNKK
Strand,RBNS enrichment (R)
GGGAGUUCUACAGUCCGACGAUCCUUGGGUUUGGAGCUUAUUUGAAUGGAAGAGGUCAGUUUGUUCCUGGCUCUCCAUUUCUGGCCUCAGUUGUCUACAGGACAGUGGUCAGGGAUGCCUGGAGGCAUAUAUCUGGAAUUCUCGGGUGCCAA,0.549
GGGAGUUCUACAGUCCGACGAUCGCACUCUAGGGUGAACCAAGCUAUAAAAGCCCAUGCUUAAAUAAAAAUUAUGUCCAAAAGCCAUUGAGUUCAUUGGUCUUCAUUCAUUUUUAAUUAAAUUUUAUGUAAGAUGGAAUUCUCGGGUGCCAA,0.342
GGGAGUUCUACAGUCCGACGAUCGGUCAGGCUGUGGCCCUUACCUCACCCGCAGUUCUCGCCCAGUGCUGCAGCCGGCUCACCUCUCUCCGCUUCUUGCACAUCACUGGCCUGUGUGUGCUGCUUGCUCCUGUUGGAAUUCUCGGGUGCCAA,0.56
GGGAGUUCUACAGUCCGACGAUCUGAAGCAUUGUGUGUUCUCAUUCGGGUGGUAACAAUGUAUGUGUAAUAUUUUUUUCUUAGUGAUUUUGACAGUUUAAAUGUUUAACAACUUAAAGCAUUAAAAAUGCUUAUGGAAUUCUCGGGUGCCAA,0.709
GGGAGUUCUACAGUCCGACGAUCGAGUUGUCUGUCCGUCCGUGGAGCCAGUCCUAGCCACAUUAUUGACAGUCUUGCAUUUUGUUUUGUCUCGUGAUGGUGGUGGUGGUAGGGGUACGCUUAGGUGGGCAGUCUGGAAUUCUCGGGUGCCAA,1.92
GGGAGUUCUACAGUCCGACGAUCUGUGAGGGAAAAAAAUAACUCUCAUUUGAUCAGACACUAAAUAUUUGGGGUAGGGAUUUCUGUCUUAUUUUCAAAUAGCCAGGGUUUUUCUUCAUUUUUUUGGUAUUUGCUGGAAUUCUCGGGUGCCAA,0.361
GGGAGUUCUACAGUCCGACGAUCGACGCAGACCCCAGCAGGUUCAGUCCCGUGCUGCCACCAGCUGUCCAGCUGGGUGUCUGGAGGGAAGAGGGCAGAGGAGGGUCAUGUCCCUUCAGCUGGGGGAGGGGCCCUGGAAUUCUCGGGUGCCAA,0.562
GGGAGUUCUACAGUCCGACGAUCGAAGUUAUGUGUGAAUGUUGUCAAGUCCUGAAGUCCUAUGAUGCACUGUGGCCCUAGAAAACGAAGAUGAAGCCUCCACUGACCACUGUGUCCUCUCUGACUUGGCCAGCUGGAAUUCUCGGGUGCCAA,1.46
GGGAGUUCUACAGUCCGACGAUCGUCUUUCAUCCUUGACAGGCUGGUAAUGUGCUGGCCACCUCCAGCUCCUGCAUCGAGUCUGUAAACCAGAGCUGGUUCUCAUGGCCUUCGUCACGAUACCAGGAUACGGAUGGAAUUCUCGGGUGCCAA,0.467
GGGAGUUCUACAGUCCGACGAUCGUGGGGUGGGAGAACCUCCUGGGCCGCCAGCCAGAGCCGGUCUUUAGGCUGUGUUGUUCGCCCAGGUUUCUGCAUCUUGCACUUUGACAUUCCCAAGAGGGAAGGGACUAUGGAAUUCUCGGGUGCCAA,0.669
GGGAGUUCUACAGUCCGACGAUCUUUUUUUAAAUUUUUAUUUUAAAAGGCACAAAACUAUAGAUAUUAGUUGAAUGUUGAGGCUUUAACUUUUUCGGUGUCUUUCUACAGCUGUGUUCUGUGACUCAAUUGUAUGGAAUUCUCGGGUGCCAA,0.556
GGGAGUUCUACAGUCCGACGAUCGGUGCUCUCUGGCUCCCAGAUGUCUAGGGCUCCAGACUCCAAGAGGGCUGAGCCUUCUCUUCUGUCUGCAGCCACAAUAGGCUUCCUCAGACGCUGGCUUGAGAGGAGCCUGGAAUUCUCGGGUGCCAA,0.282

# Some of these lines once more (block 3):
Strand,E-score
ATAAGGCA,-0.22
ACATCGCT,-0.0955
ACCCATCT,-0.0595
AGGACTTC,-0.158
GACGTAGC,0.104
CATTTCGA,-0.129
ACCATTCG,-0.047
AGCCACAA,-0.0799
